Published values of several laboratories.
Each numbered part is a random draw from the data of one study; scales do not carry over between parts. Substitutions count along the parent as printed.

Block 1
Target: CCNB3, cyclin fold, Cln2 fusion (human)
Technique: yeast growth competition, sequencing
Medium: yeast
Setting: strong parent motif
Relative to: not given
Reading: higher = stronger binding
Starting sequence: PKN2 docking peptide (human); VSAVRKLDFSDTM; partner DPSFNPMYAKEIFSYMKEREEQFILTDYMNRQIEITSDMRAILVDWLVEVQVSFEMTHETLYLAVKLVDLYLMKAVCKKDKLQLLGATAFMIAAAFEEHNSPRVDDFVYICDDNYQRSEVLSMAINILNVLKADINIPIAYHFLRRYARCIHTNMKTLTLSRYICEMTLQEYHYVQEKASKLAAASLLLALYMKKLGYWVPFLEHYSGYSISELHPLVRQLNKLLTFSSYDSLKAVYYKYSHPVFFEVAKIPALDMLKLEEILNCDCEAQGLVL
Change | normalised enrichment score
VSAVRKLDFIDTM [S10I] | 0.389
VSAVRKLDFSYTM [D11Y] | 1.3
VSAVRKLDESDTM [F9E] | 0.0528
VSAGRKLDFSDTM [V4G] | -0.0266
VSAVRKLDFSRTM [D11R] | 1.65
VSAVRYLDFSDTM [K6Y] | 0.151
VSAVRKLDFSNTM [D11N] | 1.9
VSAVRRLDFSDTM [K6R] | 1.5
VSAVRKIDFSDTM [L7I] | 0.699
VSAVYKLDFSDTM [R5Y] | 0.0809
VSAHRKLDFSDTM [V4H] | 0.141
VSAVRQLDFSDTM [K6Q] | 0.41
VSSVRKLDFSDTM [A3S] | 0.42
VSAVRKLPFSDTM [D8P] | 0.271
VSAVRKLDFSPTM [D11P] | 1.62
VSAVRKLEFSDTM [D8E] | 1.05
VSAVTKLDFSDTM [R5T] | 0.0427
VSTVRKLDFSDTM [A3T] | 0.558

Block 2
Target: RNA binding protein fox-1 homolog 2, RRM domain, GST-SBP tag (RBFOX2, Homo sapiens, UniProt O43251-10, residues 100-194)
Technique: RNA Bind-n-Seq
Molecule type: RNA
Medium: in vitro
Tested at: 365 nM
Setting: natural RNA segment, single round, ends assumed
Relative to: no-protein control
Reading: higher = stronger binding
Shared flanks, not repeated: GGGAGUUCUACAGUCCGACGAUC … UGGAAUUCUCGGGUGCCAA
Construct (chain): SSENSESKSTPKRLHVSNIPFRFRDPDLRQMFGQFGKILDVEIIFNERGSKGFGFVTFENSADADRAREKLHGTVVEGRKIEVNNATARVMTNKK
Strand | RBNS enrichment (R)
CGUGUUUUUGAGCUUGCUCUUACGUUUUAAGAGGUGCCAGGGGUACAUUUUUGCACUGAAAUCUAAAGAUGUUUUAAAAAACACUUUUCACAAAAAUAGUCCUUUGUCAU | 0.629
CUGGUACUGGGUACAUGGGUAAGGGUGGUACAGUGAAACCCACUCUCUCCCCUUUUUAUAAUGUAGAAGAAAGUAAUUGUCCUGUCUCAUUUGGGAAUUGAAUGUGGCCU | 0.625
UUAAAGUUUCAAAAAUCUGAAGAUUGUUUAUCUAGAUGUAAAUUUUUAUUAAAAAGUUGCACUUAUGAAAAAGCAAAAAAUUAGUCUGACAGAUGUUUGCUCCUGGUUUU | 0.512
CCAGUUUCAGCCGAGGCAGCAGUUUUCCUGGGAUAAUUAGCCAAGGGUUCCCCAGAGUCUUCCUAGGUAUCUCUGGGAACCAGCAGAAGGAAUUUUCACCUAAGAGGGAU | 0.324
UAAUCUCUAAGGGGUCUGCUCCCCAGGAACGUUUCUGAACAAUGGGGACUUUGUUGGUAGCCAUUUGGUAGAUGUUCUUUUCUAUUUAUAAGUGACUUUAAACUUUCCCU | 0.297
AACCCUUUUCACAGUGUACUGUGUUUGGUUGGUGUAAAACUGAUGCAGAUUUUUCUGAAAUGAGAUGUUUAGAUGAGCAUACUACUAAAGCAGAGUGGAAAAAUCUGUCU | 0.546
CCAUCAGUCCCGUCCGUCUGUCGCCUUCCCGCAAGCGUCAUCAUCGAAGCCACUGCUCCUGGGAGCACACAAGCUUCUCCCUGGAACAGCUCUUAGGAAAAGAGGCAAAC | 0.179
GGCUUCGGGUGGUGCUAUAAUGUGGCACUGGAUCUUGAGUAAUAAAUUUGCUGUGGUUUGUACACGGUGUUGUCUGUAGCCUGCAAAGGAGAGGCUAGGUUACUGGGUAC | 0.736
GGGGUUGUCCAGCCUGGACUUGUAGCACACAUGUCCUGAAGCAAAGCUCCGGUGACUGCAUGAGCCACCUGGCCACAGUCCUCCCAUGGAGGGCCUGCCGUGACGCUCAG | 0.528
UCACUCUUUCUUCUCUCUUUGUCCCGGAUAGGCUAAUCAAUACCCUUGGCACUGAUGGGCACUGGAAAACAUAGAGUAGACCUGAGAUGCUGGUCAAGCCCCCUUUGAUU | 0.301
UUAAAGACACGCACAGUCCCUUCCAUUGUCCCACAGGAGUUCCUCUGGCUGAGUAUGCCAUCCAGAGCAAGCGAUGCCCUCCCAGGUCAGUCUGGGGCACAAGCUGAGCC | 0.244
CAGCUCCCCUUCAGUCAGUGUUGUCCAGCAACGGUACCGUUUACACAUUCACCUCCGACACGCCAUUUCACCUCCCUCGCCACACUGUUAGCCUUAGUGAUUGCAGUGAA | 0.861

Block 3
Target: Interferon regulatory factor 3, full length, phosphomimetic (IRF3, Homo sapiens, UniProt Q14653, residues 1-427, S386D/S396D/S398D/S402D/T404D/S405D)
Technique: protein-binding microarray
Molecule type: double-stranded DNA, one strand shown
Medium: in vitro
Tested at: 2540 nM top
Setting: 60-bp whole probe
With: salmon DNA 0.4 mg/ml
Relative to: random background probes
Reading: higher = stronger binding
Shared flanks, not repeated: GCCTAGCAC … GTCTTGATTCGCTTGACGCTGCTG
Construct (chain): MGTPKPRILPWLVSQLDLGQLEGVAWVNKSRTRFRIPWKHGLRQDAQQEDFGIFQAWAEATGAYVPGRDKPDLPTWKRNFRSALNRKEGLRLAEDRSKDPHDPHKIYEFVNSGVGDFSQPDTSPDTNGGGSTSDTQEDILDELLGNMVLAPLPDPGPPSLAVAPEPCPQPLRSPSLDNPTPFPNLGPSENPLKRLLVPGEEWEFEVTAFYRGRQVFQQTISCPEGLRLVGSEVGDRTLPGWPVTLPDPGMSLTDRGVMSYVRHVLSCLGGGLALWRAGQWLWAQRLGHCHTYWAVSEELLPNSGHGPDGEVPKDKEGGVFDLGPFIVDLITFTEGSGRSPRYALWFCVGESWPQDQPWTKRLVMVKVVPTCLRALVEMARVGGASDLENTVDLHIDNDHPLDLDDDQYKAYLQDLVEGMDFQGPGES
Strand | fitted relative affinity
GACGGTCTCGGTATCGGGAAGTGCTAG | 1.75 z-score
GACGGTTTCATTTTCCTGACGTGCTAG | 6.2 z-score
TTAGGTATCGACTTTAGGTTAGTGCTA | 0.615 z-score
TCAAATTTTTTTCTAAGACTGTGCTAG | 0.0769 z-score
GACGAACTGGGTCTCGAGACGTGCTAG | -0.346 z-score
GACGGTATCCTTTTCCTGATGTGCTAG | 6.95 z-score
TCATGTTTACAGATGTTACTGTGCTAG | 0.296 z-score
TCAAAAATGAATATTAGACTGTGCTAG | -0.166 z-score
CTAGGTATCCTACTGCTTTAGTGCTAG | 2.43 z-score
TGAGGACTGGGTTTCGGTTAGTGCTAG | 2.82 z-score
TTAGGTATCGGACTGGGTTAGTGCTAG | 1.19 z-score
GACGGTTTCGGTATAGGGACGTGCTAG | 7.23 z-score
TTAGGTCTCCGTATCGGTTAGTGCTAG | 2.69 z-score
TTGCCTCTGCTGCTGGCCGCGTGCTAG | -0.716 z-score
TTGTGTCTGGGCTTTTTCCCCGTGCTA | -0.767 z-score
GACGGACTGGGTATCAGGACGTGCTAG | -0.13 z-score
GACGATATCAGTTTCGAGACGTGCTAG | 3.4 z-score
ATTTTTTTCATTATTGTTTCGTGCTAG | 1.77 z-score
GACGATCTCAGACTGAAGACGTGCTAG | 0.467 z-score

Mixed results
Substance | target | assay | system | setting | how to read | quantity | result
PhoQ, residues 284 288 289 292 302 303 AMDMFI | PhoP, residues 12 14 15 18 19 GQALL (Escherichia coli, UniProt P23836) | Sort-seq, measured: YFP reporter | E. coli | PhoQ-PhoP variant library, with: 10 µM Mg2+ | relative to: high Mg2+ state, higher = stronger signaling | fold induction | 1.19

A few entries again (block 3):
Strand | fitted relative affinity
TCATGTTTACAGATGTTACTGTGCTAG | 0.296 z-score
TCAAAAATGAATATTAGACTGTGCTAG | -0.166 z-score
CTAGGTATCCTACTGCTTTAGTGCTAG | 2.43 z-score
